Measured values from different studies.
Each line is one published result; not all experiments were run side by side. ± marks the error that the study gave.
Oprk1: Kappa-type opioid receptor (Oprk1, Rattus norvegicus, UniProt P34975)
ampC: Beta-lactamase (ampC, Escherichia coli K-12, UniProt P00811)

Structure (SMILES) | target | assay | system | conditions | scale | quantity | value
CSCC[C@H](N)C(=O)N[C@@H](C)C(=O)N[C@@H](C)C(=O)N[C@H](C(=O)N[C@@H](C)C(=O)NCC(=O)N[C@@H](CC(C)C)C(=O)N[C@@H](Cc1ccc(O)cc1)C(=O)NCC(=O)N[C@@H](CC(C)C)C(=O)NCC(=O)N[C@@H](CCCCN)C(=O)N[C@@H](CCCCN)C(=O)N[C@@H](CCCNC(=N)N)C(=O)N[C@@H](CCC(N)=O)C(=O)N[C@@H](Cc1c[nH]cn1)C(=O)N[C@@H](CCCNC(=N)N)C(=O)N[C@@H](CCCCN)C(=O)N[C@@H](CCCCN)C(=O)N[C@@H](CCC(N)=O)C(N)=O)C(C)C | Sh (Drosophila melanogaster, UniProt P08510, A391C/C301S/C308S/del6-46/T449V) |  |  | 0.5 µM, after MTSES modification |  | slow component current | 202 pA
CC[C@H](C)[C@H](NC(=O)[C@H](Cc1ccc(O)cc1)NC(=O)[C@@H]1CCCN1C(=O)[C@H](C)NC(=O)[C@H](CC(C)C)NC(=O)[C@H](C)NC(=O)CCCCCNC(=O)[C@H](Cc1ccc(O)cc1)NC(=O)[C@H](Cc1c[nH]cn1)NC(=O)[C@H](CCSC)NC(=O)[C@H](CCSC)NC(=O)[C@H](CC(=O)O)NC(=O)[C@@H]1CCCN1C(=O)[C@@H]1CCCN1C(=O)[C@H](Cc1c[nH]c2ccccc12)NC(=O)[C@H](CO)NC(=O)[C@@H](NC(=O)[C@H](Cc1ccc(O)cc1)NC(=O)[C@H](Cc1ccc(O)cc1)NC(C)=O)C(C)C)C(=O)N1CCC[C@H]1C(=O)N[C@@H](Cc1ccc(O)cc1)C(=O)NCC(=O)N[C@@H](CCCNC(=N)N)C(=O)N[C@@H](CCCCN)C(=O)N[C@@H](CCCCN)C(=O)N[C@@H](CCCNC(=N)N)C(=O)N[C@@H](CCCNC(=N)N)C(=O)N[C@@H](CCC(N)=O)C(=O)N[C@@H](CCCNC(=N)N)C(=O)N[C@@H](CCCNC(=N)N)C(=O)N[C@@H](CCCNC(=N)N)C(N)=O | STAT3 (Homo sapiens, UniProt P40763) | degrader, Western blot | HCT-116 | 10 µM, 12 h |  | protein degradation | ~50%
NCCc1c[nH]c2ccc(C(N)=O)cc12 | HTR7 (Homo sapiens, UniProt P34969) | cAMP production | HEK293 expressing human 5-HT7R |  |  | Hill coefficient | > 1
NC(CNC(CNC(CC(=O)O)C(=O)O)C(=O)O)C(=O)O (centres unmarked) | KPC-2 | enzyme activity, inhibitor |  | enzyme 5 nM, added: nitrocefin 30 µM |  | IC50 | no effect
Cc1cc(-c2ccc3ccn(CC(=O)O)c(=O)c3c2)ccc1O[C@H]1O[C@H](CO)[C@@H](O)[C@H](O)[C@@H]1O | Type 1 fimbrin D-mannose specific adhesin, lectin domain (fimH, Escherichia coli K-12, UniProt P08191) | binding, differential scanning fluorimetry |  |  | higher = stronger binding | melting temperature | 74.8 °C
CCc1n[nH]c(NC(=O)c2ccc3c(c2)nnn3C)n1 | Genome polyprotein, 3C protease (rhinovirus B14, UniProt P03303) | protease activity, SAMDI-MS |  |  |  | Hill slope | 1.34
C[C@@H]1NC(=O)[C@H](NC(=O)[C@H](Cc2ccccc2)NC(=O)CNC(=O)CNC(=O)[C@H](Cc2ccc(O)cc2)NCc2ccccc2)CC(=O)NC[C@@H](C(=O)N[C@@H](CCCNC(=N)N)C(=O)N2CCC[C@H]2C(=O)N[C@@H](CCCCN)C(N)=O)NC(=O)[C@H](CCCNC(=N)N)NC1=O | Oprk1 | binding |  |  | reference: zyklophin | affinity fold decrease | 18 fold
C[C@@]12CC[C@H]3[C@@H](CCC4=CC(=O)C=C[C@@]43F)[C@@H]1CCC2=O | AKR1C1 (Homo sapiens, UniProt Q04828) | enzyme activity, inhibitor, absorbance |  | 10 µM, pH 9 |  | inhibition | 7.1%
CC(=O)N[C@H]1c2nc(CCc3ccccc3)cn2[C@H](CO)[C@@H](O)[C@@H]1O | Protein O-GlcNAcase (OGA, Homo sapiens, UniProt O60502) |  |  |  | reference: over GlcNAcstatin A | potency ratio | ~10 fold
OB(O)c1cnn(-c2cccc(Cl)c2)c1 | ampC |  |  |  |  | ligand efficiency | 0.66
CN1C(=O)[C@H](CCC(=O)O)NC(=O)[C@H](Cc2ccc(O)cc2)NC(=O)[C@H](CCCNC(=N)N)NC(=O)[C@@H](Cc2ccc(O)cc2)NC(=O)CSC[C@@H](C(=O)N2CCC[C@H]2C(=O)N[C@@H](CCCCN)C(=O)N[C@@H](CS)C(N)=O)NC(=O)[C@H](CCC(=O)O)NC(=O)[C@H](Cc2ccc(O)cc2)N(C)C(=O)[C@H](CCCCN)NC(=O)[C@H](Cc2ccc(O)cc2)NC(=O)[C@@H]1Cc1ccc(O)cc1 | 2,3-bisphosphoglycerate-independent phosphoglycerate mutase (gpmI, Staphylococcus aureus, UniProt Q6GIL5) | thermal stability, thermal shift |  |  |  | ΔTm | 3 °C
Nc1nc(N)c2ncn([C@@H]3O[C@@H]4COP(=O)(O)O[C@H]5[C@@H](O)[C@H](n6cnc7c(N)ncnc76)O[C@@H]5COP(=O)(O)O[C@H]4[C@H]3O)c2n1 | ydaO riboswitch wild type (Bacillus subtilis) | competition gel-shift |  | concentration not given | reference: c-di-AMP, higher = weaker binding | binding affinity fold loss | 650
OC(COCc1ccccc1Cl)CN1CC=C(c2c[nH]c3ccccc23)CC1 (racemic) | SLC6A3 (Homo sapiens, UniProt Q01959) | radioligand competition | whole cells | concentration not given, added: [3H]WIN 35428 | reference: (±)--1 | binding affinity fold decrease | 1.6 fold
CC(C)C[C@H](NC(=O)[C@H](CCCNC(=N)N)NC(=O)[C@H](Cc1c[nH]c2ccccc12)NC(=O)[C@H](Cc1ccccc1)NC(=O)[C@H](Cc1ccccc1)N(C)C(=O)COc1ccccc1)C(=O)N[C@@H](CCCNC(=N)N)C(=O)N[C@@H](CCCNC(=N)N)C(=O)N[C@H](C)C(=O)N[C@@H](CCCNC(=N)N)C(=O)N1CCC[C@H]1C(=O)N[C@@H](CCCCN)C(N)=O | Oprk1 | agonist | CHO cells | 10 µM | reference: dynorphin A(1-13) amide | adenylyl cyclase activity | > 90%
CC[C@H](C)[C@H](NC(=O)[C@H](CCC(N)=O)NC(=O)[C@H](CC(C)C)NC(=O)[C@@H](NC(=O)CNC(=O)[C@H](Cc1ccc(O)cc1)NC(=O)[C@H](CC(=O)O)NC(=O)[C@@H](NC(=O)[C@H](CO)NC(=O)CNC(=O)[C@H](CC(=O)O)NC(=O)[C@@H](NC(=O)[C@H](CC(N)=O)NC(=O)[C@@H](N)CCCNC(=N)N)[C@@H](C)O)[C@@H](C)O)[C@@H](C)CC)C(=O)O | Periplasmic serine endoprotease DegP (degP, Escherichia coli, UniProt P0C0V0) | reporter cleavage, activator |  | added: reporter 100 µM |  | concentration for maximal activation | ≥ 2 mM
C#CCN(Cc1ccc(NC(=O)CCCCCCC(=O)Nc2ccccc2N)cc1)Cc1c(F)c(F)c(N=[N+]=[N-])c(F)c1F | HDAC2 (Homo sapiens, UniProt Q92769) | photolabeling | SET-2 |  |  | lowest labeling concentration | ≤ 200 nM

Structure (SMILES) | target | assay | system | conditions | scale | quantity | value
CCOC(=O)C1=C(COCCN)NC(C)=C(C(=O)OC)C1c1ccccc1Cl (centres unmarked) | srtA (Staphylococcus aureus, UniProt Q2FV99) | binding, fluorescence quenching |  |  |  | Stern-Volmer constant | 4700 L/mol
CC(=O)NCC(=O)N(C)[C@@H](Cc1ccccc1)C(=O)N[C@@H](Cc1ccccc1)C(=O)N[C@@H](Cc1ccccc1)C(=O)N[C@@H](CCCNC(=N)N)C(=O)N[C@@H](CC(C)C)C(=O)N[C@@H](CCCNC(=N)N)C(=O)N[C@@H](CCCNC(=N)N)C(=O)N[C@H](C)C(=O)N[C@@H](CCCNC(=N)N)C(=O)N1CCC[C@H]1C(=O)N[C@@H](CCCCN)C(N)=O | Oprk1 | agonist | CHO cells | 10 µM | reference: dynorphin A(1-13) amide | adenylyl cyclase activity | 82 ± 17%
COc1ccc2cc1Oc1ccc(cc1)C[C@H]1c3cc(c(OC)cc3CC[N@+]1(C)CCc1c[nH]c3ccccc13)Oc1c(OC)c(OC)cc3c1[C@H](C2)[N@@+](C)(CCc1c[nH]c2ccccc12)CC3 | poly(dG)·poly(dC) 18-bp dsDNA | DNA binding, ethidium bromide displacement | phosphate buffer, 10% DMSO | pH 7.2, 25 °C, dsDNA 10 µM, 10 mM NaCl, added: ethidium bromide 5 µM |  | Stern-Volmer constant | 10800 L/mol
C[C@]1(COC(=O)c2ccc(O)c(O)c2)[C@H](C(=O)O)N2C(=O)/C(=C/c3ccccn3)[C@H]2S1(=O)=O | OXA-23 (Acinetobacter baumannii, UniProt Q9L4P2) | enzyme activity, inhibitor, absorbance |  |  |  | kinact/KI | 57000 M⁻¹ s⁻¹
CCN(Cc1ccccc1)C(=O)CCc1nc(CN2CCN(C(=O)Cc3ccc(OC)c(OC)c3)CC2)no1 | Scn10a (Rattus norvegicus, UniProt Q62968) | sodium current, whole-cell patch clamp | rat DRG neurons | 1 µM |  | inactivation V1/2 | -62.4 ± 5.79 mV
CN[C@@H](C)C(=O)N[C@H]1CN(C(=O)Cc2ccccc2)CC[C@H]2CC[C@@H](C(=O)NCc3ccc(Br)cc3)N2C1=O | Baculoviral IAP repeat-containing protein 2, BIR3 domain (BIRC2, Homo sapiens, UniProt Q13490) | fluorescence polarization |  | BIR3 domain | reference: cIAP1 over XIAP | selectivity ratio | > 900
CCN(CC)CCOc1ccc(-c2nnn(Cc3ccc(OC)cc3)c2N)cc1 | TGF-beta receptor type-1, with Smad2 (TGFBR1, Homo sapiens, UniProt P36897) | TGFBR1-SMAD2 interaction, pull-down |  | 10 µM |  | binding | no effect
Cc1ccc(N2CC3CCC(C2)N3C)cc1C(=O)N[C@H](C)c1cc(-c2cnn(C)c2)nc2ccccc12 | USP2 (Homo sapiens, UniProt O75604) | enzyme activity |  | concentration not given |  | inhibition | no inhibition
COC(=O)C1C(OC(c2ccc(Cl)cc2)c2ccc(Cl)cc2)CC2CCC1N2C (single isomer, unassigned) | ADORA2A (Homo sapiens, UniProt P29274) | binding |  | 10000 nM, added: [3H]CGS-21680 |  | displacement | inactive
CS(C)(=O)=Nc1ccc(-c2ccc(-c3nc4cc(O[C@@H]5CO[C@H]6[C@@H]5OC[C@H]6O)[nH]c4cc3F)cc2)cc1 | PRKAB2/PRKAA2, with gamma3 subunit (Homo sapiens, UniProt O43741+P54646) | enzyme activity, activator |  | 60 min, 50% above basal activity, added: ATP 50 µM |  | EC150 | 0.404 nM
COc1ccc(C[C@@H](NC(=O)Cc2ccccc2)C(=O)N[C@@H](Cc2ccccc2)C(=O)N[C@@H](CCC(N)=O)C(=O)N[C@@H](CC(N)=O)C(=O)N[C@@H](CCCNC(=N)N)C(=O)N2CCC[C@H]2C(=O)N[C@@H](CCCNC(=N)N)C(=O)N[C@@H](Cc2ccc(O)c(I)c2)C(N)=O)cc1 | Vasopressin V1a receptor (Mesocricetus auratus, UniProt A0ABM2Y7A2) | saturation binding | hamster brain sections |  |  | Bmax | 5230 DPM/0.04 mg
c1cnc2c(c1)c1nccnc1c1cccnc12 | TAS2R5 (Homo sapiens, UniProt Q9NYW4) | intracellular calcium, agonist | D9 cells expressing TAS2R5 |  |  | log(Emax/EC50) | 5.9
CC[C@H](C)[C@H](NC(=O)[C@H](CCC(N)=O)NC(=O)[C@H](CC(C)C)NC(=O)[C@@H](NC(=O)CNC(=O)[C@H](Cc1ccc(O)cc1)NC(=O)[C@H](CC(=O)O)NC(=O)[C@@H](NC(=O)[C@H](CO)NC(=O)CNC(=O)[C@H](CC(=O)O)NC(=O)[C@@H](NC(=O)[C@H](CC(N)=O)NC(=O)[C@H](CCCNC(=N)N)NC(=O)[C@H](CC(N)=O)NC(=O)[C@@H](NC(=O)[C@H](C)NC(=O)[C@H](CCC(N)=O)NC(=O)[C@@H](NC(=O)[C@H](CC(N)=O)NC(=O)[C@H](Cc1ccccc1)NC(=O)[C@H](CC(N)=O)NC(=O)[C@H](CO)NC(=O)[C@H](CCC(=O)O)NC(=O)[C@H](Cc1ccccc1)NC(=O)[C@H](CCCCN)NC(=O)[C@H](C)NC(=O)[C@H](C)NC(=O)[C@H](CO)NC(=O)[C@@H](NC(=O)[C@H](Cc1c[nH]c2ccccc12)NC(=O)[C@H](CC(N)=O)NC(=O)CNC(=O)[C@H](CC(C)C)NC(=O)[C@H](CO)NC(=O)[C@H](Cc1ccc(O)cc1)NC(=O)CNC(=O)[C@H](CCCNC(=N)N)NC(=O)[C@H](Cc1ccc(O)cc1)NC(=O)[C@H](CC(N)=O)NC(=O)[C@@H](N)CC(=O)O)C(C)C)[C@@H](C)O)[C@@H](C)O)[C@@H](C)O)[C@@H](C)O)[C@@H](C)CC)C(=O)O | Periplasmic serine endoprotease DegP (degP, Escherichia coli, UniProt P0C0V0, C83S/C95S/N322C) | FRET |  | 20 µM, added: protein 500 nM |  | cage assembly half-life | 10.8 ± 1.1 s
CC(C)OC(=O)[C@H](C)NP(=S)(Oc1ccccc1)c1ccccc1 (some centres unmarked) | CTSA (Homo sapiens, UniProt P10619) | substrate, fluorescent probe DNS-N3 |  | 5 µM, pH 7.4, 37 °C, added: enzyme 250 ng/mL |  | rate constant | 0.31 h⁻¹
Cc1sc2c(c1C)C(c1ccc(Cl)cc1)=N[C@@H](CC(=O)NCCCNC(=O)c1cc([N+](=O)[O-])ccc1F)c1nnc(C)n1-2 | BRD4 (Homo sapiens, UniProt O60885) | degrader | Jurkat |  |  | Dmax | 58%
Cc1onc(-c2ccccc2Cl)c1C(=O)NCC(=O)O | ampC |  |  |  |  | ligand efficiency | > 0.14

Repeated from above:
Structure (SMILES) | target | assay | system | conditions | scale | quantity | value
CC(=O)N[C@H]1c2nc(CCc3ccccc3)cn2[C@H](CO)[C@@H](O)[C@@H]1O | Protein O-GlcNAcase (OGA, Homo sapiens, UniProt O60502) |  |  |  | reference: over GlcNAcstatin A | potency ratio | ~10 fold
C[C@@]12CC[C@H]3[C@@H](CCC4=CC(=O)C=C[C@@]43F)[C@@H]1CCC2=O | AKR1C1 (Homo sapiens, UniProt Q04828) | enzyme activity, inhibitor, absorbance |  | 10 µM, pH 9 |  | inhibition | 7.1%
